Measured values gathered from unrelated publications.
Protocols differ between the studies behind these lines. ± gives the spread as reported.

| SMILES | target | assay | system | conditions | IC50 |
| --- | --- | --- | --- | --- | --- |
| COc1cc(CCC(C)=O)ccc1O | mAb 6-AT6 | antibody binding, indirect competitive ELISA |  | added: coating antigen 2-OVA | > 4 µg/mL |
| Oc1ccc(Cl)cc1-c1nc2cc(C(F)(F)F)ccc2[nH]1 | NF-κB (human) | reporter gene, inhibitor | HEK293 NF-κB luciferase reporter | added: TNFα | 4.82 ± 1.05 µM |
| COc1nc2c(N)[n+]3cnc2n1[C@@H]1O[C@H](COP(=O)([O-])OP(=O)(O)OC[C@H]2O[C@@H]3[C@H](O)[C@@H]2O)[C@@H](O)[C@H]1O | cADPR receptor | Ca2+ release, antagonist | permeabilised Jurkat T cells | added: cADPR | 0.2 µM |
| Oc1ccc(F)cc1-c1nc2c(Cl)cc(Cl)cc2[nH]1 | NF-κB (human) | reporter gene, inhibitor | HEK293 NF-κB luciferase reporter | added: TNFα | 27.6 ± 13.5 µM |
| CC(C)c1cnc(-c2cc(Cl)ccc2F)cc1Nc1ccncc1C(=O)NC(CO)CO | TGF-β receptor type 1 (human) | SMAD2 Ser465/467 phosphorylation, inhibitor | MDA-MB-231 | unbound drug, added: TGF-β | 0.0173 ± 0.00077 µM |
| CCCCC/C=C/C(=O)CCc1ccc(O)c(OC)c1 | mAb 6-AT6 | antibody binding, indirect competitive ELISA |  | added: coating antigen 3-OVA | > 4 µg/mL |
| Oc1ccc(Cl)cc1-c1nc2c(Cl)cc(Cl)cc2[nH]1 | NF-κB (human) | reporter gene, inhibitor | HEK293 NF-κB luciferase reporter | added: TNFα | 10.2 ± 3.97 µM |
| COCCNc1nc(-c2nccn2C)nc2sc(-c3cccc(OC)c3Cl)c(-c3ccccc3)c12 | Ras | Ras-GTP complex formation, inhibitor, GTP pull-down | NCI-H1975 | 6 h, added: EGF 15 min | 1 to 3 µM |
| COc1cc(/C=C/c2ccc(N)cc2)cc(OC)c1OC | human ornithine decarboxylase | enzyme activity, inhibitor | T24 | added: TPA | 13.1 ± 2.6 µM |

Repeated from above:
| SMILES | target | assay | system | conditions | IC50 |
| --- | --- | --- | --- | --- | --- |
| COc1cc(CCC(C)=O)ccc1O | mAb 6-AT6 | antibody binding, indirect competitive ELISA |  | added: coating antigen 2-OVA | > 4 µg/mL |
